Results from different studies.
Compare with care: the assays were run in different laboratories. Numbers after ± are the reported error.

CCc1nc(C(N)=O)c(Nc2ccc(N3CCC(N4CCN(C)CC4)CC3)c(OC)c2)nc1NC1CCOCC1
t1/2 (LC-MS/MS; relapsed/refractory AML patients, plasma; oral, 300 mg once daily, cycle 1 day 15, median, from accumulation ratio): 159 h

CS(=O)(=O)c1cnc(NS(=O)(=O)c2ccc(N)cc2)nc1.Cl
t1/2 (human liver microsomes; 2 µM, pH 7.4, approximate): ~25.3 h

C[C@@H](N)C1CCN(S(=O)(=O)c2cccc3cnccc23)CC1
t1/2 (healthy volunteers, fasted, plasma; oral, 25 mg): 0.52 h

CC(C)[N+](C)(CCOC(=O)C1c2ccccc2Oc2ccccc21)C(C)C
t1/2 (human plasma; plasma stability): 0.35 h

COc1ccc2[nH]c([S+]([O-])Cc3ncc(C)c(OC)c3C)nc2c1 (stereo not shown)
t1/2 (healthy Chinese volunteers, CYP2C19 rapid metabolizers; oral, 20 mg, fed): 0.79 ± 0.3 h

C[C@H]1CN(C(=O)CC#N)[C@]12CCN(c1ncnc3[nH]ccc13)C2
t1/2 (healthy adults, plasma; oral, 1.5 mg single dose, mean): 2.2 h

CCN(CC)CCNC(=O)c1cc(S(C)(=O)=O)ccc1OC
t1/2 (human liver microsomes; 2 µM, pH 7.4, approximate): ~105 h

O=C(Nc1cnccc1Cl)N1CCN(Cc2ccc3c(c2)OC(F)(F)O3)CC1
t1/2 (healthy young men, plasma; oral, 25 mg once daily, day 10): 11 h

C[C@@H](NC(=O)N1C(=O)[C@H](Cc2ccnc(N)c2)[C@H]1C(=O)O)C1CCCCC1
t1/2 (UPLC-MS/MS; healthy adult Chinese volunteers, plasma; continuous intravenous infusion, 2.25 mg/kg/h, day 6 of 5-day infusion, mean): 1.39 h

C(/NC1CCCCC1)=C1/N=C(c2ccc[nH]2)C2=C1CCCC2
t1/2 (pooled human liver microsomes; 1 µM, pH 7.4): 0.445 h
